Measurements from different studies.
A part holds a random share of what one study measured.

Set 1
Target: Ras GTPase-activating protein-binding protein 1, full length (G3BP1, Homo sapiens, UniProt Q13283)
UniProt Q13283, sequence (whole entry, looked up): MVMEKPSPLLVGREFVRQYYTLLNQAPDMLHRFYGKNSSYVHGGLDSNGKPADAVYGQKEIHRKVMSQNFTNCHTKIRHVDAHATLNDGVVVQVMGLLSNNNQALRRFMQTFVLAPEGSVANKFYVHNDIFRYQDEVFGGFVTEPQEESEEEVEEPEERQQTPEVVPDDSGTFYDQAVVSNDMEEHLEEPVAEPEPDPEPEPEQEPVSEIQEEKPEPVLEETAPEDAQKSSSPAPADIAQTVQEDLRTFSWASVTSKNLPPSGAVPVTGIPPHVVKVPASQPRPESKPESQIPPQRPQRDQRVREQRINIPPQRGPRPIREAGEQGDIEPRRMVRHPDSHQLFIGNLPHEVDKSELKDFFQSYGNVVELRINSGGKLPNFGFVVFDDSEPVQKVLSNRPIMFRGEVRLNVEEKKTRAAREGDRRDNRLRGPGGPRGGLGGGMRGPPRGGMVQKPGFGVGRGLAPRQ
Technique: RNA Bind-n-Seq
Form: RNA
Medium: in vitro
Concentration: 200 nM
Setting: whole 134-nt RNA, ends assumed
Together with: 150 mM LiCl
Reference: input library
Direction: higher = stronger binding
Library: 7-deaza-guanosine replaces G
`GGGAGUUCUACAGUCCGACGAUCCUCAAGUCCUGUGCUACACAUCGUAUGUACCGAAUCGUGUGUGUGUGUGUGUGUAAAGUAUUAUGUUACGCCGUUCGGAUCUGCACUUCCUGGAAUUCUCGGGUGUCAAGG` gave a log2 enrichment of -0.531.
With `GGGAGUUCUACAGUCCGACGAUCCCUCAAGUCCUGUGCUACACAUCGUAUGUACCGAAUCGGGAGGGAGGGAGGGGAAAGUAUUAUGUUACGCCGUUCGGAUCUGCACUUCCAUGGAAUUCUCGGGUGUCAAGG` the log2 enrichment was -0.419.
`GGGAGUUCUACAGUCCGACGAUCGUCCUGUGCUACACAUCGUAUGUACCGAAUCGGGGAAAAAGGAAAAAGGGAAAAAGGGAAAGUAUUAUGUUACGCCGUUCGGAUCUGCACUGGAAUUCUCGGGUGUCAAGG` has a log2 enrichment of -0.142.
`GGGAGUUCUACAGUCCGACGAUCCACAGACAACACGCACCCACACAGACACAGAGGGAAGGGGUUGGGUUGGGGACAGGGUGCACAGCAGGGCGGGGUAGGACCCCAGCCCCUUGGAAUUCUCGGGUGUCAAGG` has a log2 enrichment of -0.492.
`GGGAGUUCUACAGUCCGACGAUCACCAUGCAGGUGGGCAUCUUUGGGAAGUGGGGCAAGGGGGGGAUAGGGAGGGGGGUAACACUUUGGGAACAGGUGGUCCCAGGUUGUUUCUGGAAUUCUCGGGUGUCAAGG` has a log2 enrichment of 0.145.
`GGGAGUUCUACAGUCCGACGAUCUAACUUUAGAGGAGGAUCUGAUGGAUAUGGCAGUGGACGAGGAUUUGGGGAUGGCUAUAAUGGGUAUGGAGGAGGACCUGGAGGUGGCAAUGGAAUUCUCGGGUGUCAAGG` has a log2 enrichment of -0.904.
`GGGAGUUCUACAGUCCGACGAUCUAACUUUAGAGGAGGAUCUGAUGGAUAUGGCAGUGGACGUGGAUUUGGGGAUGGCUAUAAUGGGUAUGGAGGAGGACUUGGAGGUGGCAAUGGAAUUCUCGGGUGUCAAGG` gave a log2 enrichment of 0.143.
The log2 enrichment of `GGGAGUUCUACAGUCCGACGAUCUAACUUUAGAGGAGGAUCUGAUGGAUAUGGCAGUGGACGUGGAUUUGGGGAUGGCUAUAAUGGGUAUGGAGGAUGACCUGGAGGUGGCAAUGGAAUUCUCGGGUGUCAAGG` is reported as -0.197.

Set 2
Target: RNA binding protein fox-1 homolog 2, RRM domain, GST-SBP tag (RBFOX2, Homo sapiens, UniProt O43251-10, residues 100-194)
Technique: RNA Bind-n-Seq
Form: RNA
Medium: in vitro
Concentration: 365 nM
Setting: natural RNA segment, single round, ends assumed
Reference: no-protein control
Direction: higher = stronger binding
Target sequence (chain): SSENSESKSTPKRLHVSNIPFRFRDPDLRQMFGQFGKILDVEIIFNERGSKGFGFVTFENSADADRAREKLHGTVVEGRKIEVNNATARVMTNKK
For `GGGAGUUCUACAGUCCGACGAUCAUAUUAUAUCAGACCUCCUUAAGAAAAUGAGUAUGGAUGUUCACAGUAUGUUUGAUUUUUAUCCACAAGAAUGAAUCUGAUUCAGAAUGCUUUUCAGCUGACAUACAGAGUGGAAUUCUCGGGUGCCAA`, “RBNS enrichment (R)” read 5.73.
For `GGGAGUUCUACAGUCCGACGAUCUACUGAGAUGAAGAUCGCCCAGCUGCCAGGACCACCCCAGGACAAGUUAGAGCACUGUUUAGCUCCUUUGUCUGUGUGAUAGACCUAAGAACUGUAUUAGUGUUGUACCAUGGAAUUCUCGGGUGCCAA`, “RBNS enrichment (R)” read 0.392.
For `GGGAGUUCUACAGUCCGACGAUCGUGAGAGACCAGAGGUUUUGUAUAAGUUAUUGUCCUGCUCCCUUUUCAGUUGUCUUGAAGAGCUCUUGCUACUAACUUUGGGUCCUGCUUUUCAUUUAGGUAGAUGGUAAUGGAAUUCUCGGGUGCCAA`, “RBNS enrichment (R)” read 1.1.
Under “RBNS enrichment (R)”, `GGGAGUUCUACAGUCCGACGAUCGUGGUUUGUGACAUGGCAGAUCAGAAGUGCCUCCUUGUAGGUUCAUUGGUCUCUGGAAUAAGUGCCAGCCUUUUUGCCAUAGUUGACUUGCUUCCAUAUUGGAGCUCCUCUGGAAUUCUCGGGUGCCAA` is recorded as 0.337.
Under “RBNS enrichment (R)”, `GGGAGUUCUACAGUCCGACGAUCCCAUCCAGUUGGGAAGCCAUGAUUUUCCUAAGAAUCCAGGGCCAUGGGAGAUACAAUUCCAAGUUCUCGCUUCCUCCUUUGGGCAUCUCUUCUGCCUCCCAAUCAAGGAAUGGAAUUCUCGGGUGCCAA` is recorded as 0.351.
`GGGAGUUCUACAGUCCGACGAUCAAAAGCCAUGGCCCAGAGAAUUGGGCCAGUAGAACCUAAGCCACACCUGAGGCCAGCUCUGGUCAGUCUCUGAUGGUCCAUUGGGCUGGCUCAGCACAUUGACAUCACUAUGGAAUUCUCGGGUGCCAA`: “RBNS enrichment (R)” 0.213.
Under “RBNS enrichment (R)”, `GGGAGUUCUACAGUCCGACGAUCUUUUCAGAGUCAAACAUCAUUCUGCCUGUGUUGGGGGCCAGGUGUGUCACACAAGCAUCUCAAAGUCAAAAGCCAUCUGGGGCUGCUGCUUCUGUUUCUCAGGCUCUGGGUGGAAUUCUCGGGUGCCAA` is recorded as 0.629.
`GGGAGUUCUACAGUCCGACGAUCCAACCACUGUUGGCCCAGCCUGGCUUGUGAGGAAACCAGCCCUGUCCCUCAGUAUUGAACUUGGCUGCUUGUGGGAUCCAGUCCUGGAGGACAGGCAUCAAGUUCUUAGCUGGAAUUCUCGGGUGCCAA` — result for “RBNS enrichment (R)”: 0.271.

Set 3
Target: Interferon regulatory factor 7, full length, phosphomimetic (IRF7, Homo sapiens, UniProt Q92985, residues 1-503, S471D/S472D/S475D/S476D/S477D/S483D/S484D/S487D)
Technique: protein-binding microarray
Form: double-stranded DNA, one strand shown
Medium: in vitro
Concentration: 2200 nM top
Setting: 60-bp whole probe
Together with: salmon DNA 0.4 mg/ml
Reference: random background probes
Direction: higher = stronger binding
Shared flanks, not repeated: GCCTAGCAC … GTCTTGATTCGCTTGACGCTGCTG
Residues (chain): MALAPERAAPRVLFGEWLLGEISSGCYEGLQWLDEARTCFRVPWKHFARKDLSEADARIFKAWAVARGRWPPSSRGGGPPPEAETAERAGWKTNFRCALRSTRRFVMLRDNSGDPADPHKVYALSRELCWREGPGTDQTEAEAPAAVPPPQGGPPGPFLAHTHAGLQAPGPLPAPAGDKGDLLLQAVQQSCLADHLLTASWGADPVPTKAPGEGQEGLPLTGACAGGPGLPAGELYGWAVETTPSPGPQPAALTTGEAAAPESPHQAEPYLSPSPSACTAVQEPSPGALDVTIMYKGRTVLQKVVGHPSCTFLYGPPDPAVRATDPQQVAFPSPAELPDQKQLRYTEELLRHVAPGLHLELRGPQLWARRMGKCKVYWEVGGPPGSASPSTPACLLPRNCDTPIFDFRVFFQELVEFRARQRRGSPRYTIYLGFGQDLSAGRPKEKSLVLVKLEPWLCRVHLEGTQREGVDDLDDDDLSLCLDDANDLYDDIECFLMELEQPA
`GACGGACTGCTTCTCATGACGTGCTAG`: “fitted relative affinity” 0.479 z-score.
For `AACGATTTCAGTTTCGAGACGTGCTAG`, “fitted relative affinity” read 5.75 z-score.
For `GGCGGTTTCGGGTTTCGGGACGTGCTA`, “fitted relative affinity” read 9.21 z-score.
For `TCATGTTTGATCTTGATACTGTGCTAG`, “fitted relative affinity” read 1.1 z-score.
For `GACGGTATCGGGTATCGCGACGTGCTA`, “fitted relative affinity” read 0.111 z-score.
`TTAGATTTCAGACTGGAGTAGTGCTAG`: “fitted relative affinity” -0.273 z-score.
`GACGATATCGAGTTTCGAGACGTGCTA` — result for “fitted relative affinity”: 2.15 z-score.
For `TGTACTCTCTACATGGGCTTGTGCTAG`, “fitted relative affinity” read 0.746 z-score.
`TTACGACTGGGGTATCGGTTAGTGCTA`: “fitted relative affinity” 0.633 z-score.
Under “fitted relative affinity”, `TTATGTCTCGGTATCGGTTAGTGCTAG` is recorded as 1.4 z-score.
Under “fitted relative affinity”, `CTTGCTTTGTGCCTAGCCTTGTGCTAG` is recorded as 0.649 z-score.
`TTAGAACTGGGGTTTCGAGTAGTGCTA` — result for “fitted relative affinity”: 1.1 z-score.
`TTAGGACTGCTACTGCATTAGTGCTAG` — result for “fitted relative affinity”: -0.262 z-score.
`TCAAATATGAGACTGGGACTGTGCTAG`: “fitted relative affinity” -0.501 z-score.
`GACGGTTCCCATTTCCTGACGTGCTAG`: “fitted relative affinity” 2.43 z-score.
For `TCATCCTTCTGACATCAAACTGTGCTA`, “fitted relative affinity” read 1.47 z-score.
For `TTAGATTTCAGTCTTGATTAGTGCTAG`, “fitted relative affinity” read 0.487 z-score.
Under “fitted relative affinity”, `GACGATTTCAGTCTCGATACGTGCTAG` is recorded as 1.24 z-score.
`TTAGGTATCCTACTGCTTCAGTGCTAG`: “fitted relative affinity” 0.74 z-score.

Set 4
Target: Sal-like protein 4, full length isoform B (SALL4, Homo sapiens, UniProt Q9UJQ4-2, residues 1-616)
Technique: universal PBM
Form: double-stranded DNA, one strand shown
Medium: in vitro
Concentration: not given
Setting: 8-mer, flanks averaged, mean of replicates
Direction: higher = stronger binding
The E-score of `AATTTATC` is reported as 0.329.
`CTTCACGC` has an E-score of -0.0714.
`CAGTGATG` has an E-score of 0.0768.
`CTAGGAAG` has an E-score of -0.0845.
With `AGAAGAAA` the E-score was 0.111.
The E-score of `AGCACCGC` is reported as -0.334.
`TCCGCGAA` gave an E-score of -0.0382.
`GCCTTTAC` gave an E-score of -0.00425.
With `TAGAAGAA` the E-score was 0.184.
The E-score of `ACGTGCCG` is reported as -0.153.
The E-score of `CACAACGC` is reported as -0.0605.
With `ATGAGGCA` the E-score was 0.0102.
The E-score of `CACAGTAA` is reported as 0.149.
`ACGTGAAC` gave an E-score of -0.171.
`ATCACGGA` has an E-score of 0.0993.
`AAGTTTAC` has an E-score of 0.141.

Set 5
Target: Histone acetyltransferase KAT6A, winged helix 1, GST fusion (KAT6A, Homo sapiens, UniProt Q92794, residues 1-85)
Technique: protein binding microarray
Form: double-stranded DNA, one strand shown
Medium: in vitro
Concentration: not given
Setting: 8-mer, flanks averaged, mean of 2 arrays, mostly near background
Reference: not given
Direction: higher = stronger binding
Residues (chain): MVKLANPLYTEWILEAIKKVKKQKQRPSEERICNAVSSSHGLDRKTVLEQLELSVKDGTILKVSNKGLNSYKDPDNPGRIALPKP
`ATCTTTGG` has an E-score of -0.293.
`ATCAAGCC` has an E-score of 0.0309.
`CATGTCAA` gave an E-score of -0.169.
`AATAGTCA` has an E-score of -0.207.
For `CCCTCTAC`, the E-score was -0.235.
With `AGCAGATA` the E-score was -0.0598.
With `GACAGAGA` the E-score was -0.144.
`AAAGAGCG` has an E-score of 0.186.
The E-score of `AGGGCCAG` is reported as -0.192.
For `CCGACGAA`, the E-score was 0.0977.
With `GACTCCGA` the E-score was 0.104.
`AGGCTTAG` has an E-score of -0.0708.
For `CAGCGTCA`, the E-score was 0.0265.
With `AGCTGAAT` the E-score was -0.183.
The E-score of `GCCTTAAA` is reported as 0.0288.
With `ACTTATTC` the E-score was -0.0896.
`AACATCCG` has an E-score of 0.122.
`AACAATCC` has an E-score of 0.0211.
`AGAAGTAT` gave an E-score of -0.0639.
With `GGAGAGTA` the E-score was -0.0884.
The E-score of `CCGACTCC` is reported as 0.158.
The E-score of `AGCCCCCG` is reported as 0.317.
The E-score of `CTATGGGC` is reported as -0.149.
For `CCATTAAG`, the E-score was -0.0772.
`GGAATGAA` gave an E-score of 0.0489.

Repeated from above (set 4):
`CTTCACGC` has an E-score of -0.0714.
`TCCGCGAA` gave an E-score of -0.0382.
`GCCTTTAC` gave an E-score of -0.00425.
The E-score of `AGCACCGC` is reported as -0.334.
